Measured values from different studies.

| SMILES | cell line | read-out | method | time | notes | CC50 |
| --- | --- | --- | --- | --- | --- | --- |
| COc1ccc(Nc2c(C#N)cnc3ccc(Cl)cc23)cc1 | mouse primary embryonic cardiomyocytes | – | resazurin | 72 h | no heme | > 100 µM |
| COc1cc(CN2CCN(c3ccc([N+](=O)[O-])cc3)CC2)c2cc3[n+](cc2c1O)CCc1cc2c(cc1-3)OCO2 | MDCK | cell growth or viability | SRB | 48 h | – | 141 µg/mL |
| CCC(=O)C[C@@H](O)C[C@@H](C)C[C@H](NC(=O)[C@@H]1C[C@H](C)CN1C(=O)/C=C/[C@@H](C)CC)C(=O)N[C@H](C(=O)NC(C)(C)C(=O)N[C@@H](CC(C)C)C(=O)N[C@@H](CC(C)C)C(=O)NC(C)(C)C(=O)NC(C)(C)C(=O)NCCC(=O)N[C@@H](C)CN(C)C)[C@H](O)C(C)C | C2C12 | cell growth or viability | imaging | 72 h | – | > 1.5 µM |
| O=C(CCN(CCC(=O)NC(Cc1c[nH]c2ccccc12)C(=O)O)C(=O)CCC(CCC(=O)N(CCC(=O)NC(Cc1c[nH]c2ccccc12)C(=O)O)CCC(=O)NC(Cc1c[nH]c2ccccc12)C(=O)O)(CCC(=O)N(CCC(=O)NC(Cc1c[nH]c2ccccc12)C(=O)O)CCC(=O)NC(Cc1c[nH]c2ccccc12)C(=O)O)[N+](=O)[O-])NC(Cc1c[nH]c2ccccc12)C(=O)O (stereo not drawn) | MT4 | – | – | 5 (unit not given) | – | > 100 µM |
| COc1ccc2c(c1)C1CC(C)(N2)c2c(C)nc3ccc(OC)cc3c21 (stereo not drawn) | Huh-7 | cell growth or viability | MTT | 24 h | – | > 400 µM |
| COc1cc(CN2CCN(c3ccc(C(F)(F)F)cc3)CC2)c2cc3[n+](cc2c1O)CCc1cc2c(cc1-3)OCO2 | MDCK | cell growth or viability | SRB | 48 h | – | 118 µg/mL |
| CC(C)=CCC[C@H](C)c1ccc(C)cc1 | MDCK | cell growth or viability | MTT | 72 h | – | 138 µg/mL |
| COc1cc(CN2CCN(c3ccc(C)cc3)CC2)c2cc3[n+](cc2c1O)CCc1cc2c(cc1-3)OCO2 | MDCK | cell growth or viability | SRB | 48 h | – | 142 µg/mL |
| OC[C@H]1[C@@H](O)[C@@H](O)CN1CCc1ccccc1 | BJ | – | MTS | 72 h | – | > 200 µM |
| Cc1ncnc2c1c(C(F)(F)F)cn2[C@@H]1O[C@H](CO)[C@@H](O)[C@H]1O | MRC-5 SV2 | cell growth or viability | resazurin | 72 h | – | 1.68 µM |
| COc1cc(CN2CCN(c3ccc(F)cc3)CC2)c2cc3[n+](cc2c1O)CCc1cc2c(cc1-3)OCO2 | MDCK | cell growth or viability | SRB | 48 h | – | 139 µg/mL |
| OC[C@H]1[C@@H](O)[C@@H](O)CN1Cc1ccc(Br)cc1 | BJ | – | MTS | 72 h | – | > 200 µM |
